Published values from different studies.
Protocols differ between the studies behind these lines. “And” joins repeats or separate records; there may be more than shown. Numbers after ± are the reported error.
TOP2A: DNA topoisomerase 2-alpha (TOP2A, Homo sapiens, UniProt P11388)
GUK1: GUK1 (Homo sapiens, UniProt Q16774)
SLC6A6 G62A: Sodium- and chloride-dependent taurine transporter (SLC6A6, Homo sapiens, UniProt P31641, G62A)
PHO85: Negative regulator of the PHO system (PHO85, Candida albicans, UniProt Q9HGY5)

Structure (SMILES)	target	assay	test system	conditions	scale	endpoint	value
O=C(c1cc2c(s1)CCCCC2)N1CCC(n2c(=O)[nH]c3ccccc32)CC1	Short transient receptor potential channel 6 (TRPC6, Homo sapiens, UniProt Q9Y210)	ion current, GCaMP6 calcium imaging	HEK293 transfected	20 µM, unit not given, added: 50 µM OAG	reference: control	peak Ca2+ influx	1.74 ± 0.173
C=CC(=O)N1CCC(COCC(=O)N2CCN(c3nc(-c4cnc(N)nc4C(F)F)nc(N4CCOC[C@@H]4C)n3)CC2)CC1	Dual specificity protein kinase TTK (TTK, Homo sapiens, UniProt P33981)	KINOMEscan		1 µM		remaining binding	100%
COc1cc(-c2cncc3c2CN(C)Cc2cc(N4CCNCC4)ccc2-3)cc(OC)c1OC	Phosphatidylinositol 4,5-bisphosphate 3-kinase catalytic subunit alpha isoform, with p85 alpha (Pik3ca, Mus musculus, UniProt P42337, E542K)	kinase activity		1 µM, p110a(E542K)/p85a)(m mouse, added: ATP 10 µM	reference: DMSO	remaining activity	100%
O=c1nc(SCc2cc(F)cc(C(F)(F)F)c2)nc(SCc2ccc3sccc3c2)[nH]1	TOP2A	DNA cleavage		15.6 µM, replicate 2		linear DNA	4.06%
Nc1ccc(C(=O)O)cc1	BEST1, with wild-type BEST1 (Homo sapiens, UniProt O76090, L234P)	ion current, whole-cell patch clamp	HEK293 co-expressing mutant and wild-type	concentration not given, voltage 60 mV		current density	10.8 pA/pF and 13.2 pA/pF and 17.9 pA/pF and 5.61 pA/pF and 33.1 pA/pF and 8.99 pA/pF
Nc1nc2c(ncn2[C@@H]2O[C@H](COP(=O)(O)O)[C@@H](O)[C@H]2O)c(=O)[nH]1	GUK1	enzyme activity, NADH-coupled		62.5 µM, added: KCl 50 mM		reaction velocity	0.12 µM/s and 0.126 µM/s
OC[C@H]1OC(O)[C@H](O)[C@@H](O)[C@@H]1O (stereo partly drawn)	Hexokinase-3 (HK3, Homo sapiens, UniProt P52790, A499V)	substrate inhibition		mutant A499V, partial substrate inhibition model, added: ATP 20 mM		V∞/Vmax ratio (b)	0.32 ± 0.04
CC(C)c1cccc2c(-c3ccc(Cl)cc3)cc(-c3ccc(-c4ccc(C(=O)O)cc4)[nH]3)nc12	Retinoic acid receptor gamma (RARG, Homo sapiens, UniProt P13631)	reporter gene, antagonist			reference: IC50 RARα over IC50 RARG	selectivity ratio	48 fold
C=CC(=O)N1CCC(C(=O)NCC(=O)N2CCN(c3nc(-c4cnc(N)nc4C(F)F)nc(N4CCOCC4)n3)CC2)CC1	Serine/threonine-protein kinase PAK 3 (PAK3, Homo sapiens, UniProt O75914)	KINOMEscan		1 µM		remaining binding	96%
CSCC[C@H](N)C(=O)Nc1ccc2ccccc2c1	rat neuron-specific aminopeptidase	substrate		MW 110 kDa		kcat	15.4 s⁻¹
Nc1ncnc2c1ncn2[C@@H]1O[C@H](COP(=O)(O)CP(=O)(O)OP(=O)(O)O)[C@@H](O)[C@H]1O	P2X purinoceptor 1 (P2RX1, Homo sapiens, UniProt P51575, D170A)	saturation binding	HEK293	52 nM		specific binding	183 CCPM and 159 CCPM and 224 CCPM
CCN1CCC[C@H]1CNC(=O)c1c(O)c(Cl)cc(Cl)c1OC	Mas-related G-protein coupled receptor member X4 (Homo sapiens, UniProt Q96LA9)	β-arrestin recruitment, TANGO luminescence, item: MRGPRX4		concentration not given	reference: basal luminescence	log2 fold change	-0.054
CNCC(=O)O	Sodium- and chloride-dependent glycine transporter 2 (Homo sapiens, UniProt Q9Y345)	glycine uptake, inhibitor, [3H]glycine uptake		4000 µM, log concentration 4, added: [3H]glycine	reference: no inhibitor	remaining activity	87.8%
CCN1CCN(c2cc(N3CCN(CC)CC3)nc(NCCNc3ccnc4cc(Cl)ccc34)n2)CC1	Nuclear receptor subfamily 5 group A member 2 (NR5A2, Homo sapiens, UniProt O00482)	reporter gene, Gal4 hybrid reporter		20 µM	reference: vehicle	activation	1.18 fold
COc1cc(-c2cc(C(C)=O)n3ccccc23)c(OC)cc1Cn1ccnc1	Bromodomain-containing protein 3, BD2 (BRD3, Homo sapiens, UniProt Q15059)					ΔTm	4.8 °C
[Cl-].[Na+]	GUK1	enzyme activity, NADH-coupled		3.75 mM		reaction velocity	0.00946 µM/s and 0.011 µM/s and 0.0136 µM/s
CCN(CCO)CCCC(C)Nc1ccnc2cc(Cl)ccc12 (stereo not drawn)	Sodium channel protein type 5 subunit alpha (SCN5A, Homo sapiens, UniProt Q14524)	sodium current		10 µM		inactivation V1/2	-83.8 ± 4.7 mV

Structure (SMILES)	target	assay	test system	conditions	scale	endpoint	value
O=C(O)c1ccc(Nc2ncc3c(n2)-c2ccc(Cl)cc2C(c2c(F)cccc2F)=NC3)cc1	human PKA(h)	kinase activity		1 µM		remaining activity	100%
O=C(CCCc1ccccc1)C(=O)NCCc1ccc(Oc2ccc(C(F)(F)F)cn2)cc1	Acylamino-acid-releasing enzyme (APEH, Homo sapiens, UniProt P13798)	inhibitor, FP-biotin chemoproteomics	HepG2	concentration not given	reference: DMSO, lower = stronger inhibition	probe-enriched protein abundance	544000 a.u. and 498000 a.u. and 506000 a.u.
NCCCS(=O)(=O)O	SLC6A6 G62A	binding, microscale thermophoresis		7.81 µM, room temperature, added: 50 nM labelled protein	higher = more binding	normalised MST signal	0.0119
O=[N+]([O-])c1ccc(CNc2nc(NCc3cccc(C(F)(F)F)c3)nc3[nH]cnc23)cc1	Inositol-tetrakisphosphate 1-kinase (Homo sapiens, UniProt Q13572)	phosphatase activity, luciferase-coupled		concentration not given		activity	inactive
CC(C)(CNC1(c2cccc(NC3=CC(=O)N(C4CCC(=O)NC4=O)C3=O)c2)CCC1)c1ccc(C(F)(F)F)c(Cl)c1 (stereo not drawn)	ZBTB11/CRBN (Homo sapiens, UniProt O95625+Q96SW2)	protein degradation, degrader, HiBiT luminescence	MOLT-4			Dmax	39%
c1coc(-c2n[nH]cc2-c2ccnc3ccccc23)c1	PHO85	kinase binding, MIB/MS competition	Candida albicans lysate	10 µM	reference: DMSO, negative = stronger binding	log2 fold change	-0.09
Cc1n[nH]c2ccc(-c3cc(OC[C@@H](N)Cc4ccccc4)cnc3-c3ccoc3)cc12	PHO85	kinase binding, competitor, MIB/MS competition, item: PHO85	Candida albicans cell lysate	10 µM	reference: DMSO	log2 fold change	-0.87
C[N+](C)(C)CC(=O)O	SAR11_0797 protein (Candidatus Pelagibacter ubique)	isothermal titration calorimetry		concentration not given		binding	no binding
O=c1nc(SCc2ccc(C(F)(F)F)cc2)nc(SCc2csc3ccc(Cl)cc23)[nH]1	TOP2A	decatenation		1.95 µM		mean decatenated DNA	0%
Nc1ncnc2c1ncn2[C@@H]1O[C@H](COP(=O)(O)OP(=O)(O)O)[C@@H](O)[C@H]1O	DNA mismatch repair protein MutL (mutL, Bacillus subtilis, UniProt P49850, K302S)	thermal stabilisation, differential scanning fluorimetry		pH 7.5, added: nucleotide 2 mM		delta Tm	~3 °C
CO[C@H]1O[C@H](COS(=O)(=O)O)[C@@H](O[C@@H]2O[C@@H](C(=O)O)[C@@H](O[C@H]3O[C@H](COS(=O)(=O)O)[C@@H](O[C@@H]4O[C@H](C(=O)O)[C@@H](O[C@H]5O[C@H](COS(=O)(=O)O)[C@@H](O)[C@H](O)[C@H]5NS(=O)(=O)O)[C@H](O)[C@H]4O)[C@H](OS(=O)(=O)O)[C@H]3NS(=O)(=O)O)[C@H](O)[C@H]2OS(=O)(=O)O)[C@H](O)[C@H]1NS(=O)(=O)O	Beta-2-glycoprotein 1, domain V (APOH, Homo sapiens, UniProt P02749, V266L)	isothermal titration calorimetry		concentration not given, 298 K, added: 100 mM NaCl		binding enthalpy ΔH	-7.07 ± 0.505 kcal/mol
O=c1cc(-c2ccc([N+](=O)[O-])cc2)[nH]c2c(-c3ccc(Cl)cc3)c(Cc3ccccc3)nn12	2-(3-amino-3-carboxypropyl)histidine synthase subunit 2 (DPH2, Homo sapiens, UniProt Q9BQC3)	thermal stability, binder, thermal proteome profiling	RD, cell lysate	50 µM, 0.5% DMSO	reference: DMSO vehicle	melting temperature shift	3.5 °C
O=C(NC1CCC1)c1ccc2nc(-c3cccc(NS(=O)(=O)NCCN4CCCCC4)c3)cn2c1	Mast/stem cell growth factor receptor Kit (KIT, Homo sapiens, UniProt P10721, D816H)	enzyme activity		10 µM		remaining activity	89%
O=S(=O)(O)C1CCNCC1	SLC6A6 G62A	binding, microscale thermophoresis		977 nM, room temperature, added: 50 nM labelled protein	higher = more binding	normalised MST signal	-0.0253
OC1(c2ccc(Cl)cc2)CCN(Cc2c[nH]c3ccccc23)CC1	CatSper channel complex (Homo sapiens, UniProt Q7RTX7+Q86XQ3+Q8NEC5+Q96P56)	ion current, whole-cell patch clamp	human sperm	10 µM, at +80 mV		outward current density	23 ± 4 pA/pF
CC[C@@H]1[C@H](F)C(=O)N[C@@H]1COc1nccc2cc(C(N)=O)c(OC)cc12	EKC/KEOPS complex subunit TP53RK (TP53RK, Homo sapiens, UniProt Q96S44)	ATP probe binding, KiNativ profiling, item: ATP loop probe site	THP-1 cell lysate	0.2 mM		inhibition	15.3%

Repeated from above:
Structure (SMILES)	target	assay	test system	conditions	scale	endpoint	value
Nc1ncnc2c1ncn2[C@@H]1O[C@H](COP(=O)(O)OP(=O)(O)O)[C@@H](O)[C@H]1O	DNA mismatch repair protein MutL (mutL, Bacillus subtilis, UniProt P49850, K302S)	thermal stabilisation, differential scanning fluorimetry		pH 7.5, added: nucleotide 2 mM		delta Tm	~3 °C
O=C(O)c1ccc(Nc2ncc3c(n2)-c2ccc(Cl)cc2C(c2c(F)cccc2F)=NC3)cc1	human PKA(h)	kinase activity		1 µM		remaining activity	100%
O=c1cc(-c2ccc([N+](=O)[O-])cc2)[nH]c2c(-c3ccc(Cl)cc3)c(Cc3ccccc3)nn12	2-(3-amino-3-carboxypropyl)histidine synthase subunit 2 (DPH2, Homo sapiens, UniProt Q9BQC3)	thermal stability, binder, thermal proteome profiling	RD, cell lysate	50 µM, 0.5% DMSO	reference: DMSO vehicle	melting temperature shift	3.5 °C
O=[N+]([O-])c1ccc(CNc2nc(NCc3cccc(C(F)(F)F)c3)nc3[nH]cnc23)cc1	Inositol-tetrakisphosphate 1-kinase (Homo sapiens, UniProt Q13572)	phosphatase activity, luciferase-coupled		concentration not given		activity	inactive
Nc1ncnc2c1ncn2[C@@H]1O[C@H](COP(=O)(O)CP(=O)(O)OP(=O)(O)O)[C@@H](O)[C@H]1O	P2X purinoceptor 1 (P2RX1, Homo sapiens, UniProt P51575, D170A)	saturation binding	HEK293	52 nM		specific binding	183 CCPM and 159 CCPM and 224 CCPM
